Experimental data pooled from the literature.
A part holds a random share of what one study measured.
Chain of UniProt Q9H4B4 (whole entry, looked up): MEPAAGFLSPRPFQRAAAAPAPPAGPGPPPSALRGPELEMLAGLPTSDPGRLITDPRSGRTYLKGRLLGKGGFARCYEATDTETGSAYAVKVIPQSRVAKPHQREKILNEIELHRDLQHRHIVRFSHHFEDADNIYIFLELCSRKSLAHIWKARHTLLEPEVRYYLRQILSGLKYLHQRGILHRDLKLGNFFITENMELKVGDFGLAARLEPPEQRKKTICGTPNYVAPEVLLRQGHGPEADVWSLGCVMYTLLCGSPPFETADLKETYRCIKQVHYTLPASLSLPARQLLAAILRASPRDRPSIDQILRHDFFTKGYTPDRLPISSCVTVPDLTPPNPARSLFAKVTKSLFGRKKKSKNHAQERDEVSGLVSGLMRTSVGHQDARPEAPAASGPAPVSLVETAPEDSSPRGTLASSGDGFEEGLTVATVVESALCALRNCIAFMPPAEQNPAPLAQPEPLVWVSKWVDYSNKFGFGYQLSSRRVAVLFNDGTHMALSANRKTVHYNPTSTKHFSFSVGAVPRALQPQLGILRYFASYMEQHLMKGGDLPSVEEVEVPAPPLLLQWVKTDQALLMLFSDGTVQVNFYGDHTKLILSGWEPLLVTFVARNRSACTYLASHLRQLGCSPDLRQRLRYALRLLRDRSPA
Chain of UniProt P42681 (whole entry, looked up): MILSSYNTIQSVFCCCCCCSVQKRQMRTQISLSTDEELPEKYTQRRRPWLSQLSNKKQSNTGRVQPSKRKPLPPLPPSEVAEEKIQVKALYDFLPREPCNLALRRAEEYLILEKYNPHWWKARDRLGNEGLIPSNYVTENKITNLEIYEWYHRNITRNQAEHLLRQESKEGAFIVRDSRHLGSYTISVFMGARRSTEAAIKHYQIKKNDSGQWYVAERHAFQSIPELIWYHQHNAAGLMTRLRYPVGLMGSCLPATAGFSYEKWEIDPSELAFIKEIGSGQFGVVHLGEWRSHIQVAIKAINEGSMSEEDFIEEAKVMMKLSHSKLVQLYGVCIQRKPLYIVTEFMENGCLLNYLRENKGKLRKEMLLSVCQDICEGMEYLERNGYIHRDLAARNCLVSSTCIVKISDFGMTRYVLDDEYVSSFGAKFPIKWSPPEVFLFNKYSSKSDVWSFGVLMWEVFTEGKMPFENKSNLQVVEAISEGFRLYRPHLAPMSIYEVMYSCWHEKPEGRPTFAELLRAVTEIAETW
Chain of UniProt O75676 (whole entry, looked up): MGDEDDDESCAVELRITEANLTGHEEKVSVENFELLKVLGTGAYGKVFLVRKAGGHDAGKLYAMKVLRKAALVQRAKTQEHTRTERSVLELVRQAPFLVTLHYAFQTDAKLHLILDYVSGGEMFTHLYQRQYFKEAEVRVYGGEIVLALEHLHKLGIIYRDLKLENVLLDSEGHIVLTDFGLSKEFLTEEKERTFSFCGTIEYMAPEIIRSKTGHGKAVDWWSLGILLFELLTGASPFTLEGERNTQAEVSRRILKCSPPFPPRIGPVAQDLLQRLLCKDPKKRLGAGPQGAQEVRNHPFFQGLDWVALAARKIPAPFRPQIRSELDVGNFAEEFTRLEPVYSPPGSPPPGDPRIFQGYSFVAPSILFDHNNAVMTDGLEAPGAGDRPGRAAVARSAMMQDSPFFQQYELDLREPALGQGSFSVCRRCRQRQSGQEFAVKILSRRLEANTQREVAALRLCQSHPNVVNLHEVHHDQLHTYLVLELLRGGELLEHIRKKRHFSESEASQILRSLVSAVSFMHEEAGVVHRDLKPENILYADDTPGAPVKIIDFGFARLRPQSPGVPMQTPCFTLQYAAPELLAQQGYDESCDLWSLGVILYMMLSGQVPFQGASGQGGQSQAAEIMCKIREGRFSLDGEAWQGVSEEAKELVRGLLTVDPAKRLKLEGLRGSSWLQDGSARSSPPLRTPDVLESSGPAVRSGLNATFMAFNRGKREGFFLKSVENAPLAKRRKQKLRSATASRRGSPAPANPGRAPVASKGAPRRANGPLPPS
Chain of UniProt Q16832 (whole entry, looked up): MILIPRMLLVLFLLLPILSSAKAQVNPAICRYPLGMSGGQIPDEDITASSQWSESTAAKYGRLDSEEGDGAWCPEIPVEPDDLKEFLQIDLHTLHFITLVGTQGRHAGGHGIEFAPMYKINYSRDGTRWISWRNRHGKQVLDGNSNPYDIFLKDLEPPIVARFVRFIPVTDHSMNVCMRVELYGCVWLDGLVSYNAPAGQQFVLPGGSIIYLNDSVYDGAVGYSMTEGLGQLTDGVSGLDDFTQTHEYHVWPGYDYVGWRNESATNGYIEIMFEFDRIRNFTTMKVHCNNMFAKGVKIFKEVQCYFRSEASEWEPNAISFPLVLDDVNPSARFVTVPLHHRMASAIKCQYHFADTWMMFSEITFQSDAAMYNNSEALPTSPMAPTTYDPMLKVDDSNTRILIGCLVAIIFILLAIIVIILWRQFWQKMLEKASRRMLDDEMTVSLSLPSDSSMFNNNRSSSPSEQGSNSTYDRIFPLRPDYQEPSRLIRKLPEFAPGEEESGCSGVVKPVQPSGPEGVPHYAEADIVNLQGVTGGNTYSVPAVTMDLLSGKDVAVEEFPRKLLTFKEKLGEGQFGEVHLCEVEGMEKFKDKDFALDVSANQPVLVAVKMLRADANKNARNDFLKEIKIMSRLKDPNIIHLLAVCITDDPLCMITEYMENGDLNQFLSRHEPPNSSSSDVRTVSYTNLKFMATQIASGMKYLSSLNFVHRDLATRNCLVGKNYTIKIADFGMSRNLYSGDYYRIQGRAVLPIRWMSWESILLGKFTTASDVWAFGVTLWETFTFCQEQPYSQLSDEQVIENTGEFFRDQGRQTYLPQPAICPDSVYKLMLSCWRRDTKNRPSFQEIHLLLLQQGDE
Chain of UniProt P35968 (whole entry, looked up): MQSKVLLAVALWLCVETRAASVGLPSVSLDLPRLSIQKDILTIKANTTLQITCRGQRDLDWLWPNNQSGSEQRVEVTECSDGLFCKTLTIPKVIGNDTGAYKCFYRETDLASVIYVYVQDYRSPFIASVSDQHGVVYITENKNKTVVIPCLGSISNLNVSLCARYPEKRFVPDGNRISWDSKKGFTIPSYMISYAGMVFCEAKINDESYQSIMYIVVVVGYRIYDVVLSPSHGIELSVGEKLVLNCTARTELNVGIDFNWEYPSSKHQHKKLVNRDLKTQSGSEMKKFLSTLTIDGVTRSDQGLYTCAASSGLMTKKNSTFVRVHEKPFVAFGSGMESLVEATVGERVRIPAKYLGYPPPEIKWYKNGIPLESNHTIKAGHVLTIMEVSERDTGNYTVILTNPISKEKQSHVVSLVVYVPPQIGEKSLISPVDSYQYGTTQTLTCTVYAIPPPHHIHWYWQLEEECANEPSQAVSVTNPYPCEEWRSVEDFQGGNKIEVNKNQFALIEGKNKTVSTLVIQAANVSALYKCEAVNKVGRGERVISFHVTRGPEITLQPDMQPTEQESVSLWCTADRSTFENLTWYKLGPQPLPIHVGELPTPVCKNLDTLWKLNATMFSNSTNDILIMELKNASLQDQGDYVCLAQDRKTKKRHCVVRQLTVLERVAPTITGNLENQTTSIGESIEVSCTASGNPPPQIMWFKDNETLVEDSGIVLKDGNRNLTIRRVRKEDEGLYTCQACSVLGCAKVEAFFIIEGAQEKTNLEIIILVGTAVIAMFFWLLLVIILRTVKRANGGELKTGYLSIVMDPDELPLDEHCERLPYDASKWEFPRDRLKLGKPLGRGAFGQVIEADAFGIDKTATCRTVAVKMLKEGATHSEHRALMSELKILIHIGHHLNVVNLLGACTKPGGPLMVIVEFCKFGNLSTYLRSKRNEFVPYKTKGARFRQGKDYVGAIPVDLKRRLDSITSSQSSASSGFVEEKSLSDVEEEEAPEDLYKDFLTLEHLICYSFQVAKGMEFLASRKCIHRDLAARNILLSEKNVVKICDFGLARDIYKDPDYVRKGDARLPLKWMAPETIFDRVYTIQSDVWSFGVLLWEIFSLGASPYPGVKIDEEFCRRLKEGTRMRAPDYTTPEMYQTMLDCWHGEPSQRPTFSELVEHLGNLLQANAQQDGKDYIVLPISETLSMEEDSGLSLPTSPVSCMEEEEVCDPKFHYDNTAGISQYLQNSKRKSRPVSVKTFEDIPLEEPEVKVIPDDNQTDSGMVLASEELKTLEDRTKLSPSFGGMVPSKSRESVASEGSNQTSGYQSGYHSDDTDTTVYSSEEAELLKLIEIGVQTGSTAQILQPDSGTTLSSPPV
Chain of UniProt Q16539 (whole entry, looked up): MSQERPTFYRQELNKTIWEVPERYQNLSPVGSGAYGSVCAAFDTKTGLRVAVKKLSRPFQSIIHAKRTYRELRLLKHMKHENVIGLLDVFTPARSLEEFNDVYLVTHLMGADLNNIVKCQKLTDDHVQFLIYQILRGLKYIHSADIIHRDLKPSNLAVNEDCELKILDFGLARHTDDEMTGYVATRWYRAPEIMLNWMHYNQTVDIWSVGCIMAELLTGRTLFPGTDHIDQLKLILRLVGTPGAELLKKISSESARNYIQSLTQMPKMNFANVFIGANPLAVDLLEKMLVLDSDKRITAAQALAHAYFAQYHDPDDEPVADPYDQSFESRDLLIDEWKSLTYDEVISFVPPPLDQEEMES

Study 1
Target: D(4) dopamine receptor (DRD4, Homo sapiens, UniProt P21917)
Chain of UniProt P21917 (whole entry, looked up): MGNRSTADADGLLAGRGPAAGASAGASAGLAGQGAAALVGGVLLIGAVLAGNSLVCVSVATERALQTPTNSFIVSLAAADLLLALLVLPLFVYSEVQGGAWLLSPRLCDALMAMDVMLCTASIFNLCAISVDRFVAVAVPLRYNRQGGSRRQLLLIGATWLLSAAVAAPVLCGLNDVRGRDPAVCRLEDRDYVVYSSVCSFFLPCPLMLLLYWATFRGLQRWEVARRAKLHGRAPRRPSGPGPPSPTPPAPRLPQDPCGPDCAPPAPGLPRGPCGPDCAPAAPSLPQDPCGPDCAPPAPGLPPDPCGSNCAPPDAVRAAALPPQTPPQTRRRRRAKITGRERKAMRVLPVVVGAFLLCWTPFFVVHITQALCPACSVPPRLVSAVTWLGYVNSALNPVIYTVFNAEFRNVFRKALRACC
Effect on: binding
Technique: radioligand binding
Concentration: 10 µM
Endpoint: inhibition
O=C([C@H]1C[C@H](O)CN1c1ccc(Cl)cc1)N1CC2COCC(C1)N2Cc1ccc(Cl)cc1: 51.5%
CCOCCn1cc(C(=O)Nc2ccc(-n3nc(-c4cccnc4)cc3C(F)(F)F)cn2)ccc1=O: -3.89%
O[C@]1(C(F)(F)F)CCCC[C@H]1Nc1ccc(F)cc1: -4.08%
Cc1c(N2CCCC2)nc2ccc(Br)cc2c1C(=O)NC[C@H](CCC(=O)O)c1ccccc1Cl: 1.48%
CN([C@@H]1CCc2c(CC(=O)O)c3cc(S(C)(=O)=O)ccc3n2C1)S(=O)(=O)c1ccc(F)cc1: 2.8%
O=C(Nc1cnc(Oc2ccc(F)cc2)nc1)N1CCc2ncccc2[C@@H]1c1ccc(F)cc1: 43.8%
CC1=C(C#N)[C@@H](c2ccc3[nH]nc(C)c3c2)C(C#N)=C(c2ccc(Cl)cc2)N1: 5.34%
CN(C)C(=O)Cn1cc(-c2nc([C@@](C)(c3ccc(-c4cnc(N)nc4)cc3)C3CC3)no2)cn1: 1.48%
Cc1nccc(COC(=O)N2C[C@@H]3[C@@H](CNC(=O)c4ccc5[nH]nnc5c4)[C@@H]3C2)n1: -0.15%
C[C@H](NC(=O)c1cnc2n1[C@](C)(Cc1ccc(C#N)cc1)C(=O)N2c1cc(Cl)c(F)c(Cl)c1)C(=O)NC1(c2ccccn2)CC1: -2.68%
O=C(Nc1cccnn1)N1CCC(=Cc2cccc(Oc3ccc(C(F)(F)F)cn3)c2)CC1: -6.93%
O=C(Nc1cccnn1)N1CC(CC=Cc2cncc(Oc3ccc(C(F)(F)F)cn3)n2)C1: 12.3%
CCCOc1ccc([C@H]2[C@H](C(=O)O)[C@@H](c3ccc4c(c3)OCO4)CN2CC(=O)Nc2c(CC)cccc2CC)cc1: -3.59%
Cc1cc(C)c(-n2ccn3nc(-c4cccnc4)cc23)cc1NC(=O)c1cc(C#N)cc(S(F)(F)(F)(F)F)c1: 16.4%
O=C1c2ccc(Nc3ccc(F)cc3F)cc2CCc2ccc(OC[C@H](O)CO)cc21: 9.38%

Study 2
SMILES: COc1cc(C(=O)N2CCC(N3CCN(C)CC3)CC2)ccc1Nc1ncc2c(n1)N(C)c1ccccc1C(=O)N2C
Endpoint: inhibition
human PBMC; probe labeling, inhibitor, KiNativ profiling, measured: VKELPTLkDMDFLNK; cell lysate; concentration not given, ATP site, with: ATP acyl-phosphate probe 0.1 µM: 17%
ACK (mouse); probe labelling, KiNativ, measured: Lys1 site peptide; brain tissue lysate (mouse); 0.1 µM, with: ATP acyl-phosphate probe: -10.2%
MYLK; KiNativ ADP probe; human PBMC lysate; 0.1 µM, LYS1 site: 5.2%

Study 3
Structure (SMILES): O=C(c1ccccc1)c1ccc(N2CCOCC2)cc1O
Effect on: enzyme activity
Action: inhibitor
Concentration: 0.5 µM
Reference: control
Endpoint: remaining activity
MAP2K1 (Homo sapiens, UniProt Q02750): 98.1%
CAMK4 (Homo sapiens, UniProt Q16566): 94.7%
MARK2 (Homo sapiens, UniProt Q7KZI7): 107%
PRKG2 (Homo sapiens, UniProt Q13237): 102%
PLK3 (Homo sapiens, UniProt Q9H4B4): 99.1%
GRK4 (Homo sapiens, UniProt P32298): 104%
DDR2 (Homo sapiens, UniProt Q16832): 103%
RPS6KA4 (Homo sapiens, UniProt O75676): 105%
MAPK14 (Homo sapiens, UniProt Q16539): 96.3%
KDR (Homo sapiens, UniProt P35968): 96.8%
ROCK1 (Homo sapiens, UniProt Q13464): 93.4%
TXK (Homo sapiens, UniProt P42681): 98.5%
MET (Homo sapiens, UniProt P08581): 115%

Study 4
Cell line: mouse MPNST tumor cells
Technique: high-content immunofluorescence imaging
Measured: nuclear SOX9
Concentration: 10 µM
Time: 12 h
Setting: mean of 2 replicates
Reference: DMSO control
Reading: higher = more nuclear SOX9
Endpoint: nuclear SOX9 intensity
COC(=O)c1c(C)[nH]c(C)c1C(=O)c1ccccc1Cc1ccccc1: 96.8 % of DMSO
NC(=O)OCC(O)COc1ccc(Cl)cc1 (stereo not drawn): 96.4 % of DMSO
COc1ccc(C(=O)c2ccccc2)c(O)c1: 102 % of DMSO
CC(CN(C)C)CN1c2ccccc2CCc2ccccc21 (stereo not drawn): 169 % of DMSO
CN(C)CCOC(c1ccccc1)c1ccccc1.Cn1c(=O)c2[nH]c(Cl)nc2n(C)c1=O: 101 % of DMSO

Excerpt of the above (study 1):
C[C@H](NC(=O)c1cnc2n1[C@](C)(Cc1ccc(C#N)cc1)C(=O)N2c1cc(Cl)c(F)c(Cl)c1)C(=O)NC1(c2ccccn2)CC1: -2.68%
O=C(Nc1cccnn1)N1CC(CC=Cc2cncc(Oc3ccc(C(F)(F)F)cn3)n2)C1: 12.3%
Cc1cc(C)c(-n2ccn3nc(-c4cccnc4)cc23)cc1NC(=O)c1cc(C#N)cc(S(F)(F)(F)(F)F)c1: 16.4%
CCOCCn1cc(C(=O)Nc2ccc(-n3nc(-c4cccnc4)cc3C(F)(F)F)cn2)ccc1=O: -3.89%
